Measurements of several laboratories.
Every numbered part comes from another study and shows a few of its results, in no order.
Sequence of UniProt Q9H422 (whole entry, looked up): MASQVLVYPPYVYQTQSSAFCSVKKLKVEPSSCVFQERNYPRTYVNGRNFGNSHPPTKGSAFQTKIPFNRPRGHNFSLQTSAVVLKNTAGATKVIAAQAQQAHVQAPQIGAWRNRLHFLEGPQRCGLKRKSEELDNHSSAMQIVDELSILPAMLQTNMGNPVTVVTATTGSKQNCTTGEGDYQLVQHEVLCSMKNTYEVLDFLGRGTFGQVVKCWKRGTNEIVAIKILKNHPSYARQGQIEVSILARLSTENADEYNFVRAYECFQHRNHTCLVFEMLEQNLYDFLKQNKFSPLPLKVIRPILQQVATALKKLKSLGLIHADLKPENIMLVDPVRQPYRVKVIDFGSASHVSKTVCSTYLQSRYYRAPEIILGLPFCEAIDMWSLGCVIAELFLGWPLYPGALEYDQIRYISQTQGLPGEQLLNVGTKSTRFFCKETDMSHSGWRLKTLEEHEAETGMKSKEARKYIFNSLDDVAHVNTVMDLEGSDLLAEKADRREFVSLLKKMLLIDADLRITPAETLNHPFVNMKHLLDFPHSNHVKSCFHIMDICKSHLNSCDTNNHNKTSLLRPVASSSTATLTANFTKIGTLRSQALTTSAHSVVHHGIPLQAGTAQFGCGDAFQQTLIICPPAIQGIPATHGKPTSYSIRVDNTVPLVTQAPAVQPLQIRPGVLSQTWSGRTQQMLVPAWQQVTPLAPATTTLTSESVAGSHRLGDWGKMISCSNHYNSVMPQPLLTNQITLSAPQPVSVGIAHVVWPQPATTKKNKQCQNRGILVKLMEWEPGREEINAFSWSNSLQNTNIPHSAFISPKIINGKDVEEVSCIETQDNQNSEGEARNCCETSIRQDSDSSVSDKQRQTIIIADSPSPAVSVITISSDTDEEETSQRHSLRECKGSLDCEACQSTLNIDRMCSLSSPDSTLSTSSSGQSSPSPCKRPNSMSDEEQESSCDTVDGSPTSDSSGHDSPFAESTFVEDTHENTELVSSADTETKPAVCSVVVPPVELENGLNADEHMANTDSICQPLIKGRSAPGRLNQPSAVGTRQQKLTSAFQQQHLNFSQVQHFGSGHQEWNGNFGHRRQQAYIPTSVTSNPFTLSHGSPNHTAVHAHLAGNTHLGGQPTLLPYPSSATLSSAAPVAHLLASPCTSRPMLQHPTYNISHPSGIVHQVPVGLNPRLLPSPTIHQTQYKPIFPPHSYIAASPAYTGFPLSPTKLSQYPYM
Sequence of UniProt Q96NX5 (whole entry, looked up): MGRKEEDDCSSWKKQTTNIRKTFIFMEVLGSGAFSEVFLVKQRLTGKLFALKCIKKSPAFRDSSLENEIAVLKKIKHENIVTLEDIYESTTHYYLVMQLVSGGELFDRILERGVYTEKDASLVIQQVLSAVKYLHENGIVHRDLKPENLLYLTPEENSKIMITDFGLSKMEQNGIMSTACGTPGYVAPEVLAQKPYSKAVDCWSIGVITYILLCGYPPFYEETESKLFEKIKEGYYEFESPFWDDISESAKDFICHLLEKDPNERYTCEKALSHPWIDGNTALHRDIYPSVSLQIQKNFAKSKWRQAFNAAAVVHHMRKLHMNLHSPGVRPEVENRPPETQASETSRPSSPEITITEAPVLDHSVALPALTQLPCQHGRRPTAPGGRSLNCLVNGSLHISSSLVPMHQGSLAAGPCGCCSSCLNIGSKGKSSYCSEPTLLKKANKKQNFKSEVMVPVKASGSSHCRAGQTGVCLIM
Sequence of UniProt Q09013 (whole entry, looked up): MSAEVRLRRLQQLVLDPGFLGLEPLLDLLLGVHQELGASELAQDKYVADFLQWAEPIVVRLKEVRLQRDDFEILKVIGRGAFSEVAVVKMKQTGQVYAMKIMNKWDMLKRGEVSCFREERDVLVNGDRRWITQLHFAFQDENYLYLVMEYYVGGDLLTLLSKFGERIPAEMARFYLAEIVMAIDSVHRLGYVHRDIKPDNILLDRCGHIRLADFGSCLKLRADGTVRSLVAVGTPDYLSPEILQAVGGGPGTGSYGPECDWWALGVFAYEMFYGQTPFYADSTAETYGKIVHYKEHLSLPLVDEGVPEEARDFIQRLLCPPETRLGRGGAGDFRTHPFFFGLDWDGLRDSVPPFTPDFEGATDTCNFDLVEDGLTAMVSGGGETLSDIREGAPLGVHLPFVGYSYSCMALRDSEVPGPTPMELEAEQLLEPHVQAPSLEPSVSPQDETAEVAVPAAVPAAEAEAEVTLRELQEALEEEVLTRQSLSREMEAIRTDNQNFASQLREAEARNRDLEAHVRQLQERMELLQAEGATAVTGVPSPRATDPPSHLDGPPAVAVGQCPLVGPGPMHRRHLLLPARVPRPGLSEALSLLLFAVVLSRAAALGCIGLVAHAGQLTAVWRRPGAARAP
Sequence of UniProt P23458 (whole entry, looked up): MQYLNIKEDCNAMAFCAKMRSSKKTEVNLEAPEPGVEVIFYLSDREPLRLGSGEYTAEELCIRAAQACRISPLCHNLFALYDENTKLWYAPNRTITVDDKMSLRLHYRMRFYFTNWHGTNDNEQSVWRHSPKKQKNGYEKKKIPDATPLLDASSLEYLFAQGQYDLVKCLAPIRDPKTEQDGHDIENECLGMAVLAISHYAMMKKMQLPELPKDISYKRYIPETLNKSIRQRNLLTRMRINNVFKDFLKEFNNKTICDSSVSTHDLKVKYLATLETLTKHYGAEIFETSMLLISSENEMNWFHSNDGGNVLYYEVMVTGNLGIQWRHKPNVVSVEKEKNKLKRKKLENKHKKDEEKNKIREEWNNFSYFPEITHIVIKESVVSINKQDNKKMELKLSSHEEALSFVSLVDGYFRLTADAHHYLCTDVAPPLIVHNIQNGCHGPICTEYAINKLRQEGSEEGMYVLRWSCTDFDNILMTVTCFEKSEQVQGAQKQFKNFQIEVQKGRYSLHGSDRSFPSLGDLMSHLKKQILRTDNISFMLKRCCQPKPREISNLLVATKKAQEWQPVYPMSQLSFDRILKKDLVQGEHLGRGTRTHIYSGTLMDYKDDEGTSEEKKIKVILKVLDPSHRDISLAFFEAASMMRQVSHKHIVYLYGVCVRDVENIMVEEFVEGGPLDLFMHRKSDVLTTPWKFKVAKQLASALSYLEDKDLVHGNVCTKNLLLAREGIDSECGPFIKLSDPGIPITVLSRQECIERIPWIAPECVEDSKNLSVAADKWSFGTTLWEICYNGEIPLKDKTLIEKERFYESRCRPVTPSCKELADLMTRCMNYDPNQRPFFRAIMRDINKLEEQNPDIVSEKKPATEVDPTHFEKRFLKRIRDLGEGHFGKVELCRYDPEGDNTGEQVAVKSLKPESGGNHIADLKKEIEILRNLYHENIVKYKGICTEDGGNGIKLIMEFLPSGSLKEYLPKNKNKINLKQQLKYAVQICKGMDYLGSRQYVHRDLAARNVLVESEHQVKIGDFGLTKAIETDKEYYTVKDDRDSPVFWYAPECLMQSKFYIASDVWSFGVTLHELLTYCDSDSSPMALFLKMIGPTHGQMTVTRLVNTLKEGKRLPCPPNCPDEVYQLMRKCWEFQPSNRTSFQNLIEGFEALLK
Sequence of UniProt Q14680 (whole entry, looked up): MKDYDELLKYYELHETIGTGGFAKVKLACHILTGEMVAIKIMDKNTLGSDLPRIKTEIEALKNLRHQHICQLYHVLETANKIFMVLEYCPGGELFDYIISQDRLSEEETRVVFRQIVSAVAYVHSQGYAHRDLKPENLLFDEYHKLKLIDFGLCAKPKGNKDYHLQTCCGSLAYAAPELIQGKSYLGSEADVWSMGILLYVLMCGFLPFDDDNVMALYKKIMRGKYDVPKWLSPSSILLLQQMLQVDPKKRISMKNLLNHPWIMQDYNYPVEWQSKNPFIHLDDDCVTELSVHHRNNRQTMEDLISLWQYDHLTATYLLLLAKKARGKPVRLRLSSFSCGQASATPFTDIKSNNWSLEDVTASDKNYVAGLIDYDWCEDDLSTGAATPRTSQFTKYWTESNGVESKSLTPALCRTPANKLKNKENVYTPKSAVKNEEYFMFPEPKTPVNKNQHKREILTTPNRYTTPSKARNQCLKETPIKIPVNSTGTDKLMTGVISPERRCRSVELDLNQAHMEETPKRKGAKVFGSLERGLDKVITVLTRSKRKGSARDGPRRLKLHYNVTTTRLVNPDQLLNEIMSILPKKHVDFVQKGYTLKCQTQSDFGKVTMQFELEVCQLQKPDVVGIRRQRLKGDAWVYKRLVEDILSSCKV
Sequence of UniProt P50613 (whole entry, looked up): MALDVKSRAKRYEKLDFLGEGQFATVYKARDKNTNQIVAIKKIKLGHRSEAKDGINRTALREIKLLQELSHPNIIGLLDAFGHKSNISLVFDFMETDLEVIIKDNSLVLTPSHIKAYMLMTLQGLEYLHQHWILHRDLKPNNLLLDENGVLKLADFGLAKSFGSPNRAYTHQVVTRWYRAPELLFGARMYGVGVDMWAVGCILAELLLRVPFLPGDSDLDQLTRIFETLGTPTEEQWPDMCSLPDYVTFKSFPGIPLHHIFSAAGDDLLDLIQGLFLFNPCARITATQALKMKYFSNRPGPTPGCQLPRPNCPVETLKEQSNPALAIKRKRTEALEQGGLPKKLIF
Sequence of UniProt Q8WU08 (whole entry, looked up): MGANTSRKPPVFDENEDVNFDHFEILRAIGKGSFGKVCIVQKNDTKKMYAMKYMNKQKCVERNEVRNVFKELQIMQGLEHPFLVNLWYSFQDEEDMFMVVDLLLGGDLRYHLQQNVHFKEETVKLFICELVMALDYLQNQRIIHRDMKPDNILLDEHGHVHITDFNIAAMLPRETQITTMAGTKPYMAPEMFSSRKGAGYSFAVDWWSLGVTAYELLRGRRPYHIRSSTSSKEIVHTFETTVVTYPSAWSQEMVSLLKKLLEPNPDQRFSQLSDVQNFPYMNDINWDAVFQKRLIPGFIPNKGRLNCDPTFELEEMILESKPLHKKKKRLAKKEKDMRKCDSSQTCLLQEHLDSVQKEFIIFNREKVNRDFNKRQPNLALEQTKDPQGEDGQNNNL

Study 1
Compound: O=C1NC(=O)C(c2c[nH]c3ccccc23)=C1c1c[nH]c2ccccc12
Observed: enzyme activity
Mode: inhibitor
Concentration: 0.5 µM
Reference: control
target | remaining activity [%]
Mitogen-activated protein kinase kinase kinase 8 (MAP3K8, Homo sapiens, UniProt P41279) | 90.8
Proto-oncogene tyrosine-protein kinase receptor Ret (RET, Homo sapiens, UniProt P07949) | 80.6
G protein-coupled receptor kinase 5 (GRK5, Homo sapiens, UniProt P34947) | 98.1
Serine/threonine-protein kinase D1 (PRKD1, Homo sapiens, UniProt Q15139) | 97.6
Aurora kinase A (AURKA, Homo sapiens, UniProt O14965) | 108
Cyclin-dependent kinase 2, with cyclin A (CDK2, Homo sapiens, UniProt P24941) | 81.9
Serine/threonine-protein kinase N2 (PKN2, Homo sapiens, UniProt Q16513) | 103
Cyclin-dependent kinase 7 (CDK7, Homo sapiens, UniProt P50613) | 94.4
Casein kinase II subunit alpha' (CSNK2A2, Homo sapiens, UniProt P19784) | 92
Serine/threonine-protein kinase Nek9 (NEK9, Homo sapiens, UniProt Q8TD19) | 97.3
Mitogen-activated protein kinase kinase kinase 2 (MAP3K2, Homo sapiens, UniProt Q9Y2U5) | 107
Dual specificity tyrosine-phosphorylation-regulated kinase 4 (DYRK4, Homo sapiens, UniProt Q9NR20) | 94.3
Serine/threonine-protein kinase BRSK1 (BRSK1, Homo sapiens, UniProt Q8TDC3) | 84.4
Mitogen-activated protein kinase 10 (MAPK10, Homo sapiens, UniProt P53779) | 110
Calcium/calmodulin-dependent protein kinase type 1D (CAMK1D, Homo sapiens, UniProt Q8IU85) | 106
Calcium/calmodulin-dependent protein kinase type 1G (CAMK1G, Homo sapiens, UniProt Q96NX5) | 99.5
Proto-oncogene tyrosine-protein kinase ROS (ROS1, Homo sapiens, UniProt P08922) | 87
STE20-like serine/threonine-protein kinase (SLK, Homo sapiens, UniProt Q9H2G2) | 45.4
NT-3 growth factor receptor (NTRK3, Homo sapiens, UniProt Q16288) | 72.5
Homeodomain-interacting protein kinase 3 (HIPK3, Homo sapiens, UniProt Q9H422) | 96
Rho-associated protein kinase 2 (ROCK2, Homo sapiens, UniProt O75116) | 89.2
Myotonin-protein kinase (DMPK, Homo sapiens, UniProt Q09013) | 97.3
Protein-tyrosine kinase 2-beta (PTK2B, Homo sapiens, UniProt Q14289) | 95.6

Study 2
Structure (SMILES): Cc1cc(C)c(-n2ccn3nc(-c4cccnc4)cc23)cc1NC(=O)c1cc(C#N)cc(S(F)(F)(F)(F)F)c1
Concentration: 0.1 µM
target | observed | technique | remaining binding
Dual specificity mitogen-activated protein kinase kinase 7 (MAP2K7, Homo sapiens, UniProt O14733) | cell-free assay | competition with immobilised ligand | 70.8%
Serine/threonine-protein kinase Nek4 (NEK4, Homo sapiens, UniProt P51957) | cell-free assay | competition with immobilised ligand | 90.2%
Calcium/calmodulin-dependent protein kinase type 1G (CAMK1G, Homo sapiens, UniProt Q96NX5) | cell-free assay | competition with immobilised ligand | 100%
Beta-adrenergic receptor kinase 1 (GRK2, Homo sapiens, UniProt P25098) | cell-free assay | competition with immobilised ligand | 91.8%
Ephrin type-A receptor 4 (EPHA4, Homo sapiens, UniProt P54764) | cell-free assay | competition with immobilised ligand | 100%
Ephrin type-A receptor 8 (EPHA8, Homo sapiens, UniProt P29322) | cell-free assay | competition with immobilised ligand | 83.5%
Serine/threonine-protein kinase ULK1 (ULK1, Homo sapiens, UniProt O75385) | cell-free assay | competition with immobilised ligand | 100%
Mitogen-activated protein kinase kinase kinase 11 (MAP3K11, Homo sapiens, UniProt Q16584) | cell-free assay | competition with immobilised ligand | 100%
Mitogen-activated protein kinase 6 (MAPK6, Homo sapiens, UniProt Q16659) | cell-free assay | competition with immobilised ligand | 85.8%
Maternal embryonic leucine zipper kinase (MELK, Homo sapiens, UniProt Q14680) | cell-free assay | competition with immobilised ligand | 100%
Myotonin-protein kinase (DMPK, Homo sapiens, UniProt Q09013) | cell-free assay | competition with immobilised ligand | 95.6%
Serine/threonine-protein kinase 24 (STK24, Homo sapiens, UniProt Q9Y6E0) | cell-free assay | competition with immobilised ligand | 75.9%
RAC-gamma serine/threonine-protein kinase (AKT3, Homo sapiens, UniProt Q9Y243) | cell-free assay | competition with immobilised ligand | 95.6%
Tyrosine-protein kinase JAK1, JH2 (JAK1, Homo sapiens, UniProt P23458) | cell-free assay | competition with immobilised ligand | 93.1%
cAMP-dependent protein kinase catalytic subunit alpha (PRKACA, Homo sapiens, UniProt P17612) | cell-free assay | competition with immobilised ligand | 95.6%
Protein kinase C iota type (PRKCI, Homo sapiens, UniProt P41743) | cell-free assay | competition with immobilised ligand | 100%
Calcium/calmodulin-dependent protein kinase kinase 2 (CAMKK2, Homo sapiens, UniProt Q96RR4) | cell-free assay | competition with immobilised ligand | 89%
Serine/threonine-protein kinase 32A (STK32A, Homo sapiens, UniProt Q8WU08) | cell-free assay | competition with immobilised ligand | 100%
SRSF protein kinase 3 (SRPK3, Homo sapiens, UniProt Q9UPE1) | cell-free assay | competition with immobilised ligand | 100%
Mast/stem cell growth factor receptor Kit (KIT, Homo sapiens, UniProt P10721, L576P) | cell-free assay | competition with immobilised ligand | 40.7%
Receptor tyrosine-protein kinase erbB-3 (ERBB3, Homo sapiens, UniProt P21860) | cell-free assay | competition with immobilised ligand | 96.2%
Homeodomain-interacting protein kinase 3 (HIPK3, Homo sapiens, UniProt Q9H422) | cell-free assay | competition with immobilised ligand | 80.7%
Serine/threonine-protein kinase SIK1 (SIK1, Homo sapiens, UniProt P57059) |  | competition binding | 86.3%
Tyrosine-protein kinase JAK1, JH1 (JAK1, Homo sapiens, UniProt P23458) | cell-free assay | competition with immobilised ligand | 100%
Calcium/calmodulin-dependent protein kinase type II subunit beta (CAMK2B, Homo sapiens, UniProt Q13554) | cell-free assay | competition with immobilised ligand | 87.5%

Study 3
Sample: hydrocarbon/water
SMILES | logD
CC(C)CC1NC(=O)CN(CC2CCOCC2)C(=O)C2CCCN2C(=O)C(CC(C)C)NC(=O)C(C)N(C)C(=O)C(CC(C)C)NC(=O)CN(CCCOC(C)C)C(=O)C2CCCN2C(=O)C(C)NC(=O)C(C)N(C)C1=O (centres unmarked) | 1.33
CC(C)C[C@@H]1NC(=O)CN(Cc2ccc3c(c2)OCO3)C(=O)[C@H](C)NC(=O)[C@H](CC(C)C)N(C)C(=O)[C@H]2CCCN2C(=O)[C@H](C)NC(=O)CN(CC2CCCCC2)C(=O)[C@H](C)NC(=O)[C@H](CC(C)C)N(C)C(=O)[C@H]2CCCN2C1=O | 2.49
CC[C@@H]1NC(=O)CN(CC)C(=O)[C@H]2CCCN2C(=O)[C@H](CC(C)C)NC(=O)[C@H](C)N(C)C(=O)[C@H](CC(C)C)NC(=O)Cn2cc(nn2)CN(C)C(=O)[C@H](CC(C)C)NC(=O)[C@H](C)N(C)C1=O | -1.89
CC(C)C[C@@H]1NC(=O)[C@H](C)N(C)C(=O)[C@H](CC2CCCCC2)NC(=O)[C@H](CC(C)C)N(C)C(=O)[C@H]2CCCN2C(=O)[C@H](CC2CCCCC2)NC(=O)[C@H](C)N(C)C(=O)[C@H](CC(C)C)NC(=O)Cn2cc(nn2)CN(C)C1=O | 2.64
CCC[C@@H]1NC(=O)[C@H](C)N(C)C(=O)[C@H](CC(C)C)NC(=O)Cn2cc(nn2)CN(C)C(=O)[C@H](CC(C)C)NC(=O)[C@H](C)N(C)C(=O)[C@H](CC2CCCCC2)NC(=O)CN(CCC)C(=O)[C@H]2CCCN2C1=O | 0.714
CC(C)C[C@@H]1NC(=O)CN(CCCOC(C)C)C(=O)[C@H](C)NC(=O)[C@H](CC(C)C)N(C)C(=O)[C@H]2CCCN2C(=O)[C@H](Cc2ccccc2)NC(=O)CN(CC2CCCCC2)C(=O)[C@H](C)NC(=O)[C@H](CC(C)C)N(C)C(=O)[C@H]2CCCN2C1=O | 3.2
CC[C@H]1C(=O)N[C@@H](CC2CCCCC2)C(=O)N(C)[C@@H](C)C(=O)N[C@@H](CC(C)C)C(=O)N(C)Cc2cn(nn2)CC(=O)N[C@@H](CC(C)C)C(=O)N(C)[C@@H](C)C(=O)N[C@@H](CC(C)C)C(=O)N2CCC[C@@H]2C(=O)N1C | 1.1
CCCCCN1CC(=O)NC(CC(C)C)C(=O)N(C)C(C)C(=O)NC(Cc2ccccc2)C(=O)N2CCCC2C(=O)N(CC)CC(=O)NC(CC(C)C)C(=O)N(C)C(C)C(=O)NC(CC(C)C)C(=O)N2CCCC2C1=O (centres unmarked) | 2.83
CCC[C@@H]1NC(=O)CN(CCC)C(=O)[C@H](CC(C)C)NC(=O)Cn2cc(nn2)CN(C)C(=O)[C@H](CC(C)C)NC(=O)[C@H](C)N(C)C(=O)[C@H](CC2CCCCC2)NC(=O)[C@H](C)N(C)C(=O)[C@H]2CCCN2C1=O | 0.581
CCN1CC(=O)N[C@@H](CC2CCCCC2)C(=O)N(C)[C@@H](C)C(=O)N[C@@H](CC(C)C)C(=O)N(C)Cc2cn(nn2)CC(=O)N[C@@H](CC(C)C)C(=O)N(C)[C@@H](C)C(=O)N[C@@H](CC(C)C)C(=O)N2CCC[C@@H]2C1=O | 0.597
CC[C@@H]1NC(=O)[C@H](CC)N(C)C(=O)[C@H]2CCCN2C(=O)[C@H](CC(C)C)NC(=O)[C@H](C)N(C)C(=O)[C@H](CC(C)C)NC(=O)Cn2cc(nn2)CN(C)C(=O)[C@H](CC(C)C)NC(=O)[C@H](C)N(C)C1=O | -1.18
CC(C)C[C@@H]1NC(=O)[C@H](Cc2ccc(O)cc2)N(C)C(=O)[C@H]2CCCN2C(=O)[C@H](CC(C)C)NC(=O)[C@H](CC(C)C)N(C)C(=O)[C@@H](Cc2ccccc2)N(C)C1=O | 2.36

Study 4
Target: Diamine acetyltransferase 1 (Homo sapiens, UniProt P21673)
Mode: inhibitor
Concentration: 10 µM
Reference: control
Construct (P21673 1-171): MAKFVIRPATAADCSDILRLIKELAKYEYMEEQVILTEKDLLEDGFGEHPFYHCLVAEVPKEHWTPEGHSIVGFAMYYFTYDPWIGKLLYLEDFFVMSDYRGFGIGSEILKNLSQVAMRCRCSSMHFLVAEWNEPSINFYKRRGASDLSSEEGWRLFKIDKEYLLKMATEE
SMILES | remaining activity [%]
C=C1CCC2(C(C)C)CC12 (centres unmarked) | 101
CCCCCCCCCC=O | 80.5
CCc1ccc(O)cc1 | 88.4
CCCCCCCCCCCCCCCCCC(=O)OC | 95.7
CC(C)(O)[C@@H]1Cc2cc3ccc(=O)oc3cc2O1 | 86.5
O=C(O)CCc1ccc(O)cc1 | 92.6
O=C(O)c1ccc[nH]1 | 90.6
COc1ccc(-c2coc3cc(O[C@@H]4O[C@H](CO)[C@@H](O)[C@H](O)[C@H]4O)ccc3c2=O)cc1O | 102
C=C(C)[C@H]1CC=C(C)C(=O)C1 | 99.5
Cc1c[nH]c2ccccc12 | 109
NC(Cc1ccc(O)cc1)C(=O)O (racemic) | 95.3
O=C(O)c1ccccc1C(=O)O | 94.7
CC(C)(O[C@@H]1O[C@H](CO)[C@@H](O)[C@H](O)[C@H]1O)[C@@H]1CC[C@](C)([C@H]2[C@@H](O)C[C@@]3(C)[C@@H]4C[C@H](O)[C@H]5C(C)(C)[C@@H](O[C@@H]6OC[C@@H](O)[C@H](O)[C@H]6O)CC[C@@]56C[C@@]46CC[C@]23C)O1 | 123
C[C@@H]1CC[C@H]2C(C)(C)[C@H]3C[C@@]12CC[C@@]3(C)O | 96
CCC(=O)c1c(O)cc(O)cc1O | 93.4
CC1=C(C=O)C(C)(C)CC=C1 | 91
CC(C)(C)c1ccc(O)c(C(C)(C)C)c1 | 79
O=c1ccc2c(O)cc(O)cc2o1 | 108
Cc1cc2nc3[nH]c(=O)[nH]c(=O)c3nc2cc1C | 102
C=C1CC[C@H]2O[C@]2(C)CC[C@@H]2[C@@H]1CC2(C)C | 109

For quick reference, copied from above (study 4):
SMILES | remaining activity [%]
C=C(C)[C@H]1CC=C(C)C(=O)C1 | 99.5
Cc1c[nH]c2ccccc12 | 109
NC(Cc1ccc(O)cc1)C(=O)O (racemic) | 95.3
O=C(O)c1ccccc1C(=O)O | 94.7
CC(C)(O[C@@H]1O[C@H](CO)[C@@H](O)[C@H](O)[C@H]1O)[C@@H]1CC[C@](C)([C@H]2[C@@H](O)C[C@@]3(C)[C@@H]4C[C@H](O)[C@H]5C(C)(C)[C@@H](O[C@@H]6OC[C@@H](O)[C@H](O)[C@H]6O)CC[C@@]56C[C@@]46CC[C@]23C)O1 | 123
C[C@@H]1CC[C@H]2C(C)(C)[C@H]3C[C@@]12CC[C@@]3(C)O | 96
CCC(=O)c1c(O)cc(O)cc1O | 93.4
CC1=C(C=O)C(C)(C)CC=C1 | 91
CC(C)(C)c1ccc(O)c(C(C)(C)C)c1 | 79
O=c1ccc2c(O)cc(O)cc2o1 | 108
